Experimental data of several laboratories.
Protocols differ between the studies behind these lines.

| SMILES | assay | test system | conditions | scale | measurement | result |
| --- | --- | --- | --- | --- | --- | --- |
| NC(=O)N1c2ccccc2C=Cc2ccccc21 |  | male patients | oral, dose not given, treatment-related adverse events |  | patients with Fatigue | 27% |
| CCOc1c([C@H](C)n2nc(C)c3c(N)ncnc32)cc(Cl)c(F)c1[C@@H]1CNC(=O)C1 | item: QTcF change above 60 ms | previously treated B-cell malignancy | oral, 5 mg once daily, overall population | relative to: baseline | patients | 0% |
| Cc1cc(NC2CCN(C(=O)OC3CCN(C(=O)/C=C/CN(C)C)C3)CC2)n2ncc(C(C)C)c2n1 (centres unmarked) | Phase I dose escalation CTCAE v4.0, item: abdominal pain | patients with advanced solid tumours | dose not given, TIW dosing grade 3 or higher |  | patients with adverse event | 9% |
| COc1cc(Nc2ncc3c(n2)-c2ccc(Cl)cc2C(c2c(F)cccc2OC)=NC3)ccc1C(=O)O | item: Hyperglycemia, grade 1 | cancer patients, phase 1/2 | oral, dose not given, together with: pembrolizumab |  | patients with adverse event | 67% |
| O=C(Nc1nc2cccc(-c3ccc(CN4CCS(=O)(=O)CC4)cc3)n2n1)C1CC1 |  | rheumatoid arthritis patients | oral, 100 mg twice daily, 4 weeks, TEAE regardless of relatedness |  | patients with Pharyngitis | 0% |
| FC(F)(F)c1ccc(CNc2ccc(Cc3c[nH]c4ncc(Cl)cc34)cn2)cn1 | item: hair colour changes | advanced solid tumour patients | oral, 1000 mg/day, all grades, all cohorts |  | patients with treatment-related adverse event | 48% |
| C[C@@H](Nc1cc(F)cc(F)c1)c1cc(C(=O)N(C)C)cc2c(=O)cc(N3CCOCC3)oc12 | CTCAE v4, item: any AE | patients with advanced solid tumours | oral, dose not given, phase I dose finding |  | patients discontinuing for AE | 17.5% |
| CC(C)C[C@H](NC(=O)CNC(=O)c1cc(Cl)ccc1Cl)B(O)O | item: Hyponatraemia, all grades | newly diagnosed multiple myeloma patients | oral, dose not given, maintenance phase, new onset, cycle 17 or later |  | patients with adverse event | 0% |
| Cc1cc(-c2nnc(N)nc2-c2ccc(F)cc2)cc(Cl)n1 | item: obliterative bronchiolitis | IO-naive mCRPC patients, male | oral, dose not given, treatment-related, grade 2 |  | patients with immune-mediated AE | 0% |
| COc1ccc([C@@H](O)c2cc(-c3ncnc4cc(N5CCOCC5)ccc34)c(F)cc2Cl)nn1 |  | locally advanced rectal cancer patients | 250 mg, drug-related adverse events, together with: capecitabine and radiotherapy |  | patients with diarrhea | 67% |
| CNC(=O)c1ccc(-c2cnc3ncc(Cc4ccc5ncccc5c4)n3n2)cc1F | item: Asthenia | other cancer patients | oral, 600 mg twice daily, expansion cohort, grade 3-4 |  | patients with adverse event | 0% |

Excerpt of the above:
| SMILES | assay | test system | conditions | scale | measurement | result |
| --- | --- | --- | --- | --- | --- | --- |
| Cc1cc(NC2CCN(C(=O)OC3CCN(C(=O)/C=C/CN(C)C)C3)CC2)n2ncc(C(C)C)c2n1 (centres unmarked) | Phase I dose escalation CTCAE v4.0, item: abdominal pain | patients with advanced solid tumours | dose not given, TIW dosing grade 3 or higher |  | patients with adverse event | 9% |
